Measured values of several laboratories.
Parts stem from different laboratories: compare values within a part only.

Set 1 — technique: Spec-seq; form: double-stranded DNA, one strand shown; sample: in vitro; tested at: not given; setting: whole probe, mean of replicates; relative to: not given; direction: lower = stronger binding; shared flanks, not repeated: GAGTCGTCTCGTCAGCAC … CCGTAGAGCACTCAGGTC
Target: Transcription factor SOX-2, HMG box (Sox2, Mus musculus, UniProt P48432, residues 41-119)
Sequence of UniProt P48432 (41-119, looked up): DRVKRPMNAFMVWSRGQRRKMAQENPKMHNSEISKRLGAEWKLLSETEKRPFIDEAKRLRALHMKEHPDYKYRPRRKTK
`GGCTGTT` — result for “relative binding energy”: 0.66 ln ratio.
Under “relative binding energy”, `ATACGTT` is recorded as 0.467 ln ratio.
Under “relative binding energy”, `CATGTTC` is recorded as 0.494 ln ratio.
Under “relative binding energy”, `CATATTA` is recorded as -0.157 ln ratio.
For `CATGCCA`, “relative binding energy” read 0.522 ln ratio.
`CATACGC` — result for “relative binding energy”: 0.227 ln ratio.
Under “relative binding energy”, `TCAGGTT` is recorded as 0.879 ln ratio.
Under “relative binding energy”, `CTTCGTT` is recorded as 0.72 ln ratio.

Set 2 — technique: RNA Bind-n-Seq; form: RNA; sample: in vitro; tested at: not given; setting: RNA with constant flanks, ends assumed; relative to: input RNA pool; direction: higher = stronger binding
Target: RING finger protein unkempt homolog, zinc fingers 1-6, GST-SBP tag (UNK, Homo sapiens, UniProt Q9C0B0, residues 30-357)
Residues (chain): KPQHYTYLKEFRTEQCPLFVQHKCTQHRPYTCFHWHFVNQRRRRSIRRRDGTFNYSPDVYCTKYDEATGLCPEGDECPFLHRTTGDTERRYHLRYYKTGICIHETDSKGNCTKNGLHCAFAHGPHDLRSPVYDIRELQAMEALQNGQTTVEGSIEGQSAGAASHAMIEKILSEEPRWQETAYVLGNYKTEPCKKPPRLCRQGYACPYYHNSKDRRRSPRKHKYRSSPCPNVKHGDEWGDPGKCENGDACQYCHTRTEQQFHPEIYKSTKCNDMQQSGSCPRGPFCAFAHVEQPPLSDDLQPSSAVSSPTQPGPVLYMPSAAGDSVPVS
`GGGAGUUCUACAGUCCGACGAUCUUGGGCUUCUGGAGGGCCUCUCUCGCCUGCCCGACGUCCUGCAAAUGCAGUUCCGCCCGGAUUUGGUGUACUGAGCCUUCUCCAGGCAUCGUGGCAUUCCCGAGGUUGGAACCUAACAGCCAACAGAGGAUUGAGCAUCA` has a bound/input enrichment of 0.0437 ratio.
For `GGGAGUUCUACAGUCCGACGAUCCUGAUAGUCCUAGCAAUUGAUCACAAAAGGAGGCUCACAGCAUGUAAAUUCUCUGGUCUUUACCGCGUUCACCUGGAAUGGACGACCCUUUUUUUUUUCCUUUGCCUUCUACUUAUUUCUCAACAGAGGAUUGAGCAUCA`, the bound/input enrichment was 0.994 ratio.
`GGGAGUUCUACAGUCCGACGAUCAUAAUGAUGCUUUGCGAGGCUCGAAGAGCAGUUCAGAAGAAUAUGAUAUUUAUUGAUCAAAACCGAGUUAUGCUUAAAUAUCUCUUUCCUUUGAAUGAAAUUGUGGUAGAUUUUUAUGACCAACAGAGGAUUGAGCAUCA` has a bound/input enrichment of 0.217 ratio.
`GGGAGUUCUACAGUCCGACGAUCAAGAUUCACCAAGAAACCUUUGGCAAGAGUGGAUGCCGUCGCAUCGUUCCUGGCCAGUUCUCCGCUGUGGAUCCCAAAGGGCGAGCCGUUAUGAUUAGUGCCAUUGAGAAACAGAAAUUGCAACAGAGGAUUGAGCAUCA` has a bound/input enrichment of 0.326 ratio.
`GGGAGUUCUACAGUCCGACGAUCGCAUAUGGUUAUCGAGGAAAGGACUGUAGAGCUAAUGUUUACCUUCUUCCGACCGGGAAAACCGUUUAUUUCAUUGCAUCAGUAGUAGUACUAUUUAAUUAUGAGGAGAGAACUCAGCGACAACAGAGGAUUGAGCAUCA` has a bound/input enrichment of 3.09 ratio.
`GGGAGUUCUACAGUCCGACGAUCCUCCCUGGAGGAGUCAAGGCCUUGAAGCUACCUAAUGAAGAGGCCACCACACCAUCCGACUCCGCUUUGCAAGGUGGACACUCCACACUGGUAGAAGACAUCACAAAUUUUCAGGGUAGCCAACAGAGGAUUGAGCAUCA` has a bound/input enrichment of 0.119 ratio.
`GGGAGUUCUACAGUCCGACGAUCGAGGAGGACUCUGACGACGACGAAGCGCUCAGCCCACCAAAACGAGGAAGACCCCAAGUCCGAUUGCCAAUUAAAACAAAAGGGAGAUUUGGCCCUUCUUUCCCAAGUCGCAGCCAACGACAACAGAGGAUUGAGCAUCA` has a bound/input enrichment of 0.0804 ratio.
`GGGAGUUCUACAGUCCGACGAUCGUUAUCAUUUGUGUGGAAGGAAAAGAAUUUCCUUGCCAUAGAGCUGUGCUCUCAGCCUGCCGCAGCUACUUCAGAGCUAUGUUUUGUAAUGACCACAGGGAAAGCCGAGAAAUGUUGGUUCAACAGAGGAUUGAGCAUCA` gave a bound/input enrichment of 0.238 ratio.

Set 3 — technique: protein binding microarray; form: double-stranded DNA, one strand shown; sample: in vitro; tested at: not given; relative to: not given; direction: higher = stronger binding
Target: Histone acetyltransferase KAT6A, winged helix 1, GST fusion (KAT6A, Homo sapiens, UniProt Q92794, residues 1-85)
Setting: 8-mer, flanks averaged, mean of 2 arrays, mostly near background
Construct (chain): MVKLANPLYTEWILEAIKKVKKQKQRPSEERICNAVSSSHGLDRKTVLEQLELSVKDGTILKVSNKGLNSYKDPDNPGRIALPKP
`AAAATCAA` gave an E-score of -0.157.
`CAAAAGTA` has an E-score of -0.166.
The E-score of `ACGGCTAT` is reported as 0.327.
For `AATGGTAC`, the E-score was 0.0132.
With `CGAAAGAA` the E-score was -0.128.
For `GTAGGAGA`, the E-score was -0.099.
With `TATCCGCA` the E-score was 0.176.
`ATATCCAG` has an E-score of -0.176.

Mixed results
With CC(C)(CO)NCc1ccc(-c2cc(Cl)cc(Cl)c2)o1 the remaining compound was 69.8% (human, microsomes or S9; 2 µM, 0.5 h).
